Published values from different studies.
Every numbered part comes from another study and shows a few of its results, in no order. pIC50: −log10 of the molar value.

Study 1
Target: Replicase polyprotein 1ab, main protease (rep, Severe acute respiratory syndrome coronavirus 2, UniProt P0DTD1)
Effect on: enzyme activity
Action: inhibitor
Setting: no DTT
Endpoint: pIC50
Nc1nc2c(ncn2[C@@H]2O[C@H](CO)[C@@H](O)[C@H]2O)c(=S)[nH]1: 5.20
O=C(C=Cc1ccc(O)c2c1C(C(=O)OC(Cc1ccc(O)c(O)c1)C(=O)O)C(c1ccc(O)c(O)c1)O2)OC(Cc1ccc(O)c(O)c1)C(=O)O (centres unmarked): 5.47
CCN(CC)c1ccc(C(=C2C=CC(=[N+](CC)CC)C=C2)c2ccccc2)cc1: 4.94
NC[C@H](O)c1ccc(O)c(O)c1: < 4.70

Study 2
Target: Histone acetyltransferase KAT6A, both winged helices, GST fusion (KAT6A, Homo sapiens, UniProt Q92794, residues 1-181)
Method: protein binding microarray
Form: double-stranded DNA, one strand shown
Sample: in vitro
Tested at: not given
Setting: 8-mer, flanks averaged, mean of 2 arrays, mostly near background
Reference: not given
Reading: higher = stronger binding
Endpoint: E-score
Construct (chain): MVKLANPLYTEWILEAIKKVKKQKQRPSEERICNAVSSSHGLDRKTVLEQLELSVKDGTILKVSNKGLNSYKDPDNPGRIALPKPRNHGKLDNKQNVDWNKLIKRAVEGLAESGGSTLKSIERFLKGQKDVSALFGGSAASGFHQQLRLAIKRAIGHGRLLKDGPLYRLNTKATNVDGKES
GATGGGAC: -0.0373
CGGCTCTA: 0.244
ACGGAAAT: 0.206
GATGACCA: 0.114
AACGTTCC: 0.15
GGCAGTCA: -0.0607
CAGCAGTA: -0.125
GCTATGCA: 0.032

Study 3
Cell line: HEK-293T/ACE2
Tested at: 10 µM
Time: 16 h
Reference: vehicle
Endpoint: viability
NCCCCCC(=O)O: 101%
C=CC1=C(C(=O)O)N2C(=O)[C@@H](NC(=O)/C(=N\OCC(=O)O)c3csc(N)n3)[C@H]2SC1: 100%
CO/N=C(\C(=O)N[C@@H]1C(=O)N2C(C(=O)O)=C(C[N+]3(C)CCCC3)CS[C@H]12)c1csc(N)n1: 101%
O=C(O)CCCCCCCC(=O)O: 103%
Cc1c(OCC(F)(F)F)ccnc1C[S+]([O-])c1nc2ccccc2[nH]1 (centres unmarked): 98.7%

Study 4
Target: Replicase polyprotein 1ab, polymerase (rep, Severe acute respiratory syndrome coronavirus 2, UniProt P0DTD1)
Effect on: enzyme activity
Action: inhibitor
Tested at: 20 µM
Endpoint: inhibition
CCCCCCCCCC(=O)OC1(c2ccc(Cl)cc2)CCN(CCCC(=O)c2ccc(F)cc2)CC1: -6.13%
C[C@H]1NC(=O)NC1=O: 1.56%
CC[N+](CC)(CC)CCOc1ccc(/C=C/c2ccccc2)cc1: -0.63%
CCN(CC)CCCCN1c2ccccc2Oc2ccc(Cl)cc21: -0.48%
CCCCCCCCc1ccc(CCC(N)(CO)CO)cc1: 5.72%
COc1ncc(-c2ccc3c(Nc4cc(Oc5cc(F)cc(F)c5)cc(C(=O)O)c4)c(S(=O)(=O)NC4CC4)cnc3c2)c(OC)n1: 65.8%
CCN(CC)C(=O)Nc1ccc(OCC(O)CNC(C)(C)C)c(C(C)=O)c1 (centres unmarked): -2.2%
OC(CCN1CCCCC1)(c1ccccc1)C1C[C@@H]2C=C[C@H]1C2 (some centres unmarked): -3.28%
O=C1CN(/N=C/c2ccc([N+](=O)[O-])o2)C(=O)N1: 20.6%
CCOC(=O)Nc1nc2ccccc2[nH]1: -16.8%
CCCn1c(=O)c2[nH]c(C3CCCC3)nc2n(CCC)c1=O: -0.68%
COc1ccccc1Oc1c(NS(=O)(=O)c2ccc(C(C)(C)C)cc2)nc(-c2ncccn2)nc1OCCO: 7%
OCCN1CCN(CCCN2c3ccccc3C=Cc3ccccc32)CC1: -3.67%
O=Nc1c(-c2c(O)[nH]c3cc(Br)ccc23)[nH]c2ccccc12: 13.2%
CCN(CCCOc1ccc2c(Nc3cc(CC(=O)Nc4cccc(F)c4)[nH]n3)ncnc2c1)CCOP(=O)(O)O: 8.84%
N#Cc1ccc(NCCNCC(=O)N2CCC[C@H]2C#N)nc1: -5.71%
Cc1c(C(=O)N2CCOc3ccc(-c4ccc(N)nc4)cc3C2)ccc(S(C)(=O)=O)c1F: -3.1%
CC(=O)NS(=O)(=O)c1ccc(NC(=O)c2ccccc2C(=O)O)cc1: -2.85%
CC(C)(C)NCC(O)COc1cc(Cl)ccc1Cl (centres unmarked): 3.7%
CCc1c2c(nc3ccc(OC(=O)N4CCC(N5CCCCC5)CC4)cc13)-c1cc3c(c(=O)n1C2)COC(=O)[C@]3(O)CC: 14.6%
Cn1ncc(Cl)c1-c1cc(C(=O)N[C@H](CN)Cc2ccc(F)c(F)c2)oc1Cl: 0.04%
CCn1c(N)c(C(=O)NC)c(=O)c2ccc(C#C[C@@](C)(O)COC)nc21: 3.57%
N#CC(c1ccccc1)(c1ccccc1)c1ccccc1Cl: -9.65%
O=C(c1cccc(Br)c1)N1CCC(N2CCCC2)CC1: -2.21%
CCCCCCCCCCCCCCCCOc1nc2ccc(C)cc2c(=O)o1: -1.88%

Study 5
Target: RING finger protein unkempt homolog, zinc fingers 1-6, GST-SBP tag (UNK, Homo sapiens, UniProt Q9C0B0, residues 30-357)
Sequence of UniProt Q9C0B0 (30-357, looked up): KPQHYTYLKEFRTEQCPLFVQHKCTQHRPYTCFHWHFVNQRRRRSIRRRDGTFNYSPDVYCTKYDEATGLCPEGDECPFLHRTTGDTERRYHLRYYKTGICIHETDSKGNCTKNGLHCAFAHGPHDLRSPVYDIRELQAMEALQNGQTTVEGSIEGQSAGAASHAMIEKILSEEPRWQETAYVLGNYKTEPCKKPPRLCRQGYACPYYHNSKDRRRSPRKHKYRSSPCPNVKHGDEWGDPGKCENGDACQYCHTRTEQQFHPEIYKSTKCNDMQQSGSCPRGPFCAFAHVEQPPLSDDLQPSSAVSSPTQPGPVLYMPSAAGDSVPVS
Method: RNA Bind-n-Seq
Form: RNA
Sample: in vitro
Tested at: not given
Setting: RNA with constant flanks, human-mouse chimeric sites, ends assumed
Reference: input RNA pool
Reading: higher = stronger binding
Endpoint: bound/input enrichment
Shared flanks, not repeated: GGGAGUUCUACAGUCCGACGAUC … CAACAGAGGAUUGAGCAUCA
CCAAUUGUGGAGCAGUACUUGAAGACAAAGAAAAAUUCUAAUAAUUUAAUCAUCAAGUACAUUAGCUGCCGCCUGCUGACACUCAUCAUUAUACUGUUGGCAUGUAUCUACCUGGGCUAU: 0.323 ratio
UAUAUCACCAAUGUCCUACAAAAUCCUGAUUUGGCUCUGAGAAUGGCUGUGCGGAACAACUUAGCCGGUGCUGAAGAACUCUUUGCCCGGAAAUUUAAUGCUCUCUUCGCCCAGGGAAAC: 0.611 ratio
AGAAUCUUGGGACUGUUUUACUUAAUUGGUCAUUGAUAGCUUAACAAACAUGGAGAUAAGAUUAGAAAUCUUGACAUCAACAAGUAUCAAGCAGAAAAAACCAUGGCCACGUGUCUCCUG: 0.142 ratio
CACGUGUCUGCAGUACUUGAUGUGGACUACUCUCCCACUGGGAAGGAAUUUGUGUCUGCCAGCUUUGAUAAGUCUAUUCGAAUCUUUCCUGUGGACAAAAGUCGAAGCAGGGAAGUGUAU: 0.296 ratio
GAUAAGAAAAGCUUGUUGGAGACCCGCUUGCAUGUCACUGGUAGAGACCUGAGGUGUCAAAUAGCUGAAACCUUUGGAUUUCAAGAAAAUUACAUCAAGAUCGUAAUAAAUAAGAAACAG: 0.269 ratio
GUCAACAGCUGCCUCAAUCCCAUUCUCUAUGCUUUCUUGGAUGAGAACUUCAAGGCCUGCUUCCGCAAGUUCUGCUGUGCAUCUGCCCUGCGCCGGGACGUGCAGGUGUCUGACCGCGUG: 0.458 ratio
AUCAAAUACUUUGGGGACAUCAUUAGUGUGGGACAGAGACUGUUGCAAGGAGCUCGGAUCUUAGGGAUUCCAGUUAUUGUAACAGAACAAUACCCCAAAGGACUUGGGAGCACGGUUCAA: 0.208 ratio
CUGAGGAUACCACUGAAAGAGACAUUAAAGAAUCAUUUGAGGGCUCUGUUCGUGCAAAGGAUAGUUAUGAUCGGGAAACUGGUUCUUCCAAAGGGUUUGGUUUUGUAGACUUUAAUAGUG: 0.991 ratio

Repeated from above (study 1):
Nc1nc2c(ncn2[C@@H]2O[C@H](CO)[C@@H](O)[C@H]2O)c(=S)[nH]1: 5.20
NC[C@H](O)c1ccc(O)c(O)c1: < 4.70
CCN(CC)c1ccc(C(=C2C=CC(=[N+](CC)CC)C=C2)c2ccccc2)cc1: 4.94
O=C(C=Cc1ccc(O)c2c1C(C(=O)OC(Cc1ccc(O)c(O)c1)C(=O)O)C(c1ccc(O)c(O)c1)O2)OC(Cc1ccc(O)c(O)c1)C(=O)O (centres unmarked): 5.47
